Published values collected from several papers.
Lines come from different studies, so protocols differ. Values joined by “and” are separate records of one study, mostly repeats; a detail may differ. ± gives the spread as reported.

| Molecule | target or system | test | test system | setting | scale | measurement | result |
| --- | --- | --- | --- | --- | --- | --- | --- |
| C[C@H]1CNCCc2ccc(Cl)cc21 | – | – | male Sprague-Dawley rat, plasma | subcutaneous, pimavanserin 0.5 + lorcaserin 0.5 mg/kg, pimavanserin 15 min earlier | – | AUC(0-t) | 26.5 ± 1.8 ng·h/mL |
| CN[C@@](C)(C[18F])C(=O)O | MDA-MB-468 tumour model | – | host not given, heart | 30 min, tumour-bearing | – | tracer uptake | 3.6 %ID/g |
| TAMRA-ATP | mutS (Escherichia coli, UniProt P23909) | binding, fluorescence anisotropy | – | pH 7.5, room temperature, labelled ATP analogue, no DNA, high-affinity site, with: 10 mM MgCl2 | – | Kd | 0.034 ± 0.002 µM |
| [123I]c1cncc(OC[C@@H]2CCN2)c1 | – | SPECT | human, temporal lobe | intravenous bolus, 9.3 mCi | baseline: plasma | tissue/plasma ratio | 8.39 |
| Nc1nc2c(ncn2[C@H]2C[C@H](O)[C@@H](COP(=O)(O)OP(=O)(O)OP(=O)(O)O)O2)c(=O)[nH]1 | DNA polymerase IV, with DNA (dbh, Saccharolobus solfataricus, UniProt Q97W02) | dNTP incorporation, substrate, single-turnover kinetics | – | 37 °C, insertion opposite lesion, with: DNA with dG-C8-N-ABA lesion, Dpo4 120 nM | – | Kd | 1200 ± 400 µM |
| CC(C)C[C@@H]1NC(=O)[C@H](C(C)C)NC(=O)[C@H](C)NC(=O)[C@@H](N)CSSC[C@@H](C(=O)NCC(=O)NCC(=O)NCC(=O)NCC(=O)N[C@@H](CO)C(=O)N2CCC[C@H]2C(=O)N[C@@H](C)C(=O)N2CCC[C@H]2C(=O)N[C@@H](C)C(=O)N[C@@H](CCCCN)C(=O)O)NC(=O)[C@H](CCC(N)=O)NC(=O)[C@H](CCC(=O)O)NC(=O)[C@H](CCC(=O)O)NC(=O)[C@H](CCCCN)NC(=O)[C@@H]2CCCN2C(=O)[C@H](CC(C)C)NC(=O)CNC(=O)[C@H](CO)NC1=O | sapA (Haemophilus influenzae, UniProt Q4QL73) | binding, SPR | – | 25 °C, with: immobilised oxidised defensin loop peptide | – | Kd | 0.0172 µM |
| [C-]#[O+] | ferrous H-NOX (Nostoc sp.) | koff over kon | – | – | – | Kd | ≤ 8 µM |
| [Fe+2] | methionine aminopeptidase (Acinetobacter baumannii, UniProt V5VCW7) | metal binding, activator, activity titration | ATCC 17978 | divalent metal ion Kd, with: Met-AMC substrate | – | Kd | 0.54 µM |
| O=C(O[C@@H]1Cc2c(O)cc(O)cc2O[C@@H]1c1cc(O)c(O)c(O)c1)c1cc(O)c(O)c(O)c1 | Beta-2-microglobulin, Cu(II)-bound (B2M, Homo sapiens, UniProt P61769) | binding to Cu(II)-β2m, covalent labelling MS (DEPC, Lys91) | – | with: Cu(II) 60 µM | – | Kd | 11 ± 5 µM |
| CC[C@H](C)[C@H](NC(=O)[C@H](CC(=O)O)NC(=O)CNC(=O)[C@H](CCC(N)=O)NC(=O)[C@H](C)NC(=O)[C@H](C)NC(=O)[C@H](CCCNC(=N)N)NC(=O)[C@H](CC(N)=O)NC(=O)[C@H](CCC(=O)O)NC(=O)[C@H](CC(C)C)NC(=O)[C@@H](NC(=O)[C@@H]1CCCN1C(=O)[C@H](CCSC)NC(=O)[C@H](CCC(=O)O)NC(=O)[C@@H]1CCCN1C(=O)[C@@H](NC(=O)[C@H](CCCNC(=N)N)NC(=O)[C@H](C)NC(=O)[C@H](CCCCN)NC(=O)[C@@H](NC(=O)[C@@H](NC(=O)[C@@H]1CCCN1C(=O)[C@@H](NC(=O)[C@H](Cc1ccc(O)cc1)NC(=O)[C@H](CC(C)C)NC(=O)[C@H](CC(C)C)NC(=O)[C@@H]1CCCN1C(=O)[C@H](CC(C)C)NC(=O)[C@H](CC(C)C)NC(=O)[C@H](C)NC(=O)[C@H](CC(C)C)NC(=O)[C@H](C)NC(=O)[C@@H](NC(=O)[C@@H](NC(=O)[C@H](CO)NC(=O)[C@H](CCC(N)=O)NC(=O)[C@H](CCCCN)NC(=O)[C@H](CS)NC(=O)[C@@H](N)CCSC)[C@@H](C)O)[C@@H](C)CC)[C@@H](C)O)C(C)C)[C@@H](C)O)[C@@H](C)O)C(C)C)C(=O)N[C@H](C(=O)N[C@@H](C)C(N)=O)[C@@H](C)O | secA (Escherichia coli, UniProt P10408, C885S/C887S/C896S/C98S/S696C) | fluorescence anisotropy | – | pH 7.5, mutant, with: IAN-labelled signal peptide 1 µM | – | Kd | 7.5 ± 1.3 µM |
| CC1=C(/C=C/C(C)=C/C=C/C(C)=C/C=C/C=C(C)/C=C/C=C(C)/C=C/C2=C(C)C[C@@H](O)CC2(C)C)C(C)(C)C[C@H](O)C1 | Beta-lactoglobulin (LGB, Bos taurus, UniProt P02754) | binding | – | – | – | Kd | 3.07 ± 0.04 µM |
| CC[C@H](C)[C@H](NC(=O)[C@H](CCC(=O)O)NC(=O)[C@@H](NC(=O)CCCC[C@@H]1SC[C@@H]2NC(=O)N[C@@H]21)[C@@H](C)O)C(=O)N[C@H](C(=O)N[C@@H](CC(N)=O)C(=O)N1CCC[C@H]1C(=O)N[C@@H](CC(N)=O)C(=O)N[C@@H](Cc1ccc(OP(=O)(O)O)cc1)C(=O)N[C@@H](CCSC)C(=O)NCC(=O)N[C@H](C(=O)NCC(=O)N1CCC[C@H]1C(=O)O)C(C)C)[C@@H](C)CC | Docking protein 2, PTB domain (DOK2, Homo sapiens, UniProt O60496) | SPR | – | 37 °C, high peptide density | – | Kd | > 30 µM |
| c1ccc2c(c1)-c1cccc3c1c-2cc1ccccc13 | Cytochrome P450 1B1 (CYP1B1, Homo sapiens, UniProt Q16678) | binding, fluorescence | – | pH 7.4 | – | Kd | 1.1 µM and < 2.5 µM |
| CC(=O)N[C@@H](Cc1c[nH]c2ccccc12)C(=O)N[C@@H](CCCCN)C(=O)N[C@@H](CCCCN)C(=O)N[C@@H](CC(C)C)C(=O)N[C@@H](CC(C)C)C(=O)N[C@@H](CCCCN)C(=O)N[C@@H](CC(C)C)C(=O)N[C@@H](CC(C)C)C(=O)N[C@@H](CCCCN)C(=O)N[C@@H](CCCCN)C(=O)N[C@@H](CC(C)C)C(=O)N[C@@H](CC(C)C)C(=O)N[C@@H](CCCCN)C(=O)N[C@@H](CC(C)C)C(=O)N[C@@H](C)C(=O)NCC(N)=O | HCV IRES domain IV hairpin | competitive fluorescence anisotropy | – | pH 7.4, 20 °C, with: rhodamine-Rev peptide | – | Kd | 0.00074 ± 7e-05 µM |
| Nc1ncnc2c1ncn2[C@@H]1O[C@H](COP(=O)(O)OP(=O)(O)OP(=O)(O)O)[C@@H](O)[C@H]1O | Chemotaxis protein CheA, P4 domain (cheA, Thermotoga maritima, UniProt Q56310) | binding, competition with TNP analogue | – | 4 °C, with: Mg2+ | – | Kd | 11 ± 4 µM |
| CC[C@H](C)[C@H](NC(=O)[C@H](CCC(=O)O)NC(=O)[C@H](C)NC(=O)[C@H](CCC(N)=O)NC(=O)[C@H](CO)NC(=O)[C@H](CC(C)C)NC(=O)[C@@H](NC(=O)[C@H](CO)NC(=O)[C@H](CC(=O)O)NC(=O)CNC(=O)[C@@H](N)CCSC)[C@@H](C)CC)C(=O)N[C@@H](CC(=O)O)C(=O)N[C@@H](C)C(=O)N[C@@H](CC(C)C)C(=O)N[C@@H](CC(C)C)C(=O)N[C@@H](CC(N)=O)C(=O)O | cheY, phosphono-modified (Escherichia coli, UniProt P0AE67, D57C/T87I) | – | – | – | – | Kd | not detected |

For quick reference, copied from above:
| Molecule | target or system | test | test system | setting | scale | measurement | result |
| --- | --- | --- | --- | --- | --- | --- | --- |
| TAMRA-ATP | mutS (Escherichia coli, UniProt P23909) | binding, fluorescence anisotropy | – | pH 7.5, room temperature, labelled ATP analogue, no DNA, high-affinity site, with: 10 mM MgCl2 | – | Kd | 0.034 ± 0.002 µM |
| CC1=C(/C=C/C(C)=C/C=C/C(C)=C/C=C/C=C(C)/C=C/C=C(C)/C=C/C2=C(C)C[C@@H](O)CC2(C)C)C(C)(C)C[C@H](O)C1 | Beta-lactoglobulin (LGB, Bos taurus, UniProt P02754) | binding | – | – | – | Kd | 3.07 ± 0.04 µM |
| O=C(O[C@@H]1Cc2c(O)cc(O)cc2O[C@@H]1c1cc(O)c(O)c(O)c1)c1cc(O)c(O)c(O)c1 | Beta-2-microglobulin, Cu(II)-bound (B2M, Homo sapiens, UniProt P61769) | binding to Cu(II)-β2m, covalent labelling MS (DEPC, Lys91) | – | with: Cu(II) 60 µM | – | Kd | 11 ± 5 µM |
